{"data": "Published values from different studies", "note": "Every numbered part comes from another study and shows a few of its results, in no order."}
{"data": "Study 1", "target": "Fragile X messenger ribonucleoprotein 1, C-terminal low-complexity region (Fmr1, Mus musculus, UniProt P35922)", "method": "RNA Bind-n-Seq", "form": "RNA", "matrix": "in vitro", "concentration": "200 nM", "notes": "whole 134-nt RNA, ends assumed", "together with": "150 mM LiCl", "reference": "input library", "direction": "higher = stronger binding", "library": "7-deaza-guanosine replaces G"}
{"Sequence": "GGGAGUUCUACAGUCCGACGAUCUGGCCCUGGUGGCAUGCGGGGAGGAAGAGGUGGCCUGAUGGAUCGUGGUGGUCCCGGUGGAAUGUUCAGAGGUGGCCGUGGUGGAGACAGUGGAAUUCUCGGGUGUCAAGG", "log2 enrichment": 1.17}
{"Sequence": "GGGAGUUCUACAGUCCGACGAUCUCCUCAAGUCCUGUGCUACACAUCGUAUGUACCGAAUCGGGGUGGUGGGUGGAAAGUAUUAUGUUACGCCGUUCGGAUCUGCACUUCCAGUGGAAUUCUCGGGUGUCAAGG", "log2 enrichment": -0.132}
{"Sequence": "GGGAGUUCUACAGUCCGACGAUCUGGCCCUGGUGGCAUGCGGGGAGGAAAAGGUGGCCUCAUGGAUCGUGGUGGUCCCGGUGGAAUGUUCAGAGGUGGCCGUGGUGGAGACAGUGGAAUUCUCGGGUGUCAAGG", "log2 enrichment": -0.12}
{"Sequence": "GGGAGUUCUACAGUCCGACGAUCAGUCCUGUGCUACACAUCGUAUGUACCGAAUCAAACCCAAAUUUUUAAACCCCCAAAAAAGUAUUAUGUUACGCCGUUCGGAUCUGCACUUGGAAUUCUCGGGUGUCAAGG", "log2 enrichment": 1.06}
{"Sequence": "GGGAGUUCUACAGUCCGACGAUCCCUGUGCUACACAUCGUAUGUACCGAAUCGGGGUUUGGGGUUUUUGGGGAAAAAAAGGGGAAAGUAUUAUGUUACGCCGUUCGGAUCUGCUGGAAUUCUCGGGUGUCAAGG", "log2 enrichment": -0.684}
{"Sequence": "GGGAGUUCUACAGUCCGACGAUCGUCCUGUGCUACACAUCGUAUGUACCGAAUCGGGCCCCCGGGGCCCCCGGGCCCCCGGGAAAGUAUUAUGUUACGCCGUUCGGAUCUGCAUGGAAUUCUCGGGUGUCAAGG", "log2 enrichment": -3}
{"Sequence": "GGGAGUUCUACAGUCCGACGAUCCCUGUGCUACACAUCGUAUGUACCGAAUCGGGGUUUUUGGGGUUUUUGGGGAAAAAGGGGAAAGUAUUAUGUUACGCCGUUCGGAUCUGCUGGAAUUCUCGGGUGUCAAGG", "log2 enrichment": -0.31}
{"Sequence": "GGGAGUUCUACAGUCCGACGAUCGCAGGAAGUAAAAACAAAUGGAAAUGCUUCGGAUAGUGGCAGGGGUGGGGGUUGCUAAGGGAAGGGUGGGAUGGGAGUGGGUAAAGAGUUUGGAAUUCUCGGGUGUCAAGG", "log2 enrichment": 1.49}
{"data": "Study 2", "target": "Interferon regulatory factor 3, full length, phosphomimetic (IRF3, Homo sapiens, UniProt Q14653, residues 1-427, S386D/S396D/S398D/S402D/T404D/S405D)", "method": "protein-binding microarray", "form": "double-stranded DNA, one strand shown", "matrix": "in vitro", "concentration": "2540 nM top", "notes": "60-bp whole probe", "together with": "salmon DNA 0.4 mg/ml", "reference": "random background probes", "direction": "higher = stronger binding", "all sequences stand within": "GCCTAGCAC … GTCTTGATTCGCTTGACGCTGCTG", "Construct (chain)": "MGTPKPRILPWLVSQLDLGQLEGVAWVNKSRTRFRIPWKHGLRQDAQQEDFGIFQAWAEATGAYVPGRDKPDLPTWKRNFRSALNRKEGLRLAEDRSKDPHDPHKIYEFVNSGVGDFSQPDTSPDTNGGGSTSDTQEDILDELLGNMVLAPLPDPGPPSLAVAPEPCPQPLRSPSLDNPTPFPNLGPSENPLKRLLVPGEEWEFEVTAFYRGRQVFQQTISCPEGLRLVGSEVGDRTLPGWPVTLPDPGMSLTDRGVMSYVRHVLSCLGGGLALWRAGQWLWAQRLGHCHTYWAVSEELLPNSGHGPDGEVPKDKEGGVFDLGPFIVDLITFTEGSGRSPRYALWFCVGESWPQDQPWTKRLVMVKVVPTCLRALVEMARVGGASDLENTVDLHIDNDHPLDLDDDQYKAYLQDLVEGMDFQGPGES"}
{"Sequence": "GAGGATCTCAGACTGGAGACGTGCTAG", "fitted relative affinity [z-score]": -0.346}
{"Sequence": "TTAGGTTTCGACACTAGGTTAGTGCTA", "fitted relative affinity [z-score]": 2.46}
{"Sequence": "TTAGAACTGGGGTTTCGATTGGTGCTA", "fitted relative affinity [z-score]": 0.504}
{"Sequence": "GGCGAACTGGGGACTGGAGACGTGCTA", "fitted relative affinity [z-score]": -0.964}
{"Sequence": "CACGATATCGGGACTGGAGACGTGCTA", "fitted relative affinity [z-score]": 0.137}
{"Sequence": "GACGGTTCCGCTTTCGGGACGTGCTAG", "fitted relative affinity [z-score]": 4.09}
{"Sequence": "TCAGTTTTGCTAAGTCAAACTGTGCTA", "fitted relative affinity [z-score]": 1.25}
{"Sequence": "GACGATATCGGGAATGGAGACGTGCTA", "fitted relative affinity [z-score]": 0.166}
{"Sequence": "GACGCTTTCCTTATCCTGACGTGCTAG", "fitted relative affinity [z-score]": 5.36}
{"Sequence": "TTAGGTTTCGGGAGTGGGTTAGTGCTA", "fitted relative affinity [z-score]": 3.03}
{"Sequence": "CTATCTCTGTTTTTGCTTTCGTGCTAG", "fitted relative affinity [z-score]": 2.97}
{"Sequence": "GGATCTTGCAGATGTCGCTGGGTGCTA", "fitted relative affinity [z-score]": -0.118}
{"Sequence": "GGGCATTTGGTTAGCGTATAGTGCTAG", "fitted relative affinity [z-score]": -0.788}
{"Sequence": "GACGGTTTCTGGTTTCGGGACGTGCTA", "fitted relative affinity [z-score]": 4.25}
{"Sequence": "TTAGGTTTCGGATTCGGTTAGTGCTAG", "fitted relative affinity [z-score]": 8.44}
{"Sequence": "GACGGTTTCGGTATCGCGACGTGCTAG", "fitted relative affinity [z-score]": 7.73}
{"Sequence": "GACGGACTAGGTTTCGGGACGTGCTAG", "fitted relative affinity [z-score]": 2.24}
{"Sequence": "TCGCACACATACGGCTTCTCGTGCTAG", "fitted relative affinity [z-score]": -0.0553}
{"Sequence": "CTACGCCTGCAGGTGAGCCGGTGCTAG", "fitted relative affinity [z-score]": -0.741}
{"data": "Study 3", "target": "Sal-like protein 4, full length isoform A (SALL4, Homo sapiens, UniProt Q9UJQ4, residues 1-1053)", "method": "universal PBM", "form": "double-stranded DNA, one strand shown", "matrix": "in vitro", "concentration": "600 nM", "notes": "8-mer, flanks averaged, mean of replicates", "direction": "higher = stronger binding", "sequence of UniProt Q9UJQ4 (whole entry, looked up)": "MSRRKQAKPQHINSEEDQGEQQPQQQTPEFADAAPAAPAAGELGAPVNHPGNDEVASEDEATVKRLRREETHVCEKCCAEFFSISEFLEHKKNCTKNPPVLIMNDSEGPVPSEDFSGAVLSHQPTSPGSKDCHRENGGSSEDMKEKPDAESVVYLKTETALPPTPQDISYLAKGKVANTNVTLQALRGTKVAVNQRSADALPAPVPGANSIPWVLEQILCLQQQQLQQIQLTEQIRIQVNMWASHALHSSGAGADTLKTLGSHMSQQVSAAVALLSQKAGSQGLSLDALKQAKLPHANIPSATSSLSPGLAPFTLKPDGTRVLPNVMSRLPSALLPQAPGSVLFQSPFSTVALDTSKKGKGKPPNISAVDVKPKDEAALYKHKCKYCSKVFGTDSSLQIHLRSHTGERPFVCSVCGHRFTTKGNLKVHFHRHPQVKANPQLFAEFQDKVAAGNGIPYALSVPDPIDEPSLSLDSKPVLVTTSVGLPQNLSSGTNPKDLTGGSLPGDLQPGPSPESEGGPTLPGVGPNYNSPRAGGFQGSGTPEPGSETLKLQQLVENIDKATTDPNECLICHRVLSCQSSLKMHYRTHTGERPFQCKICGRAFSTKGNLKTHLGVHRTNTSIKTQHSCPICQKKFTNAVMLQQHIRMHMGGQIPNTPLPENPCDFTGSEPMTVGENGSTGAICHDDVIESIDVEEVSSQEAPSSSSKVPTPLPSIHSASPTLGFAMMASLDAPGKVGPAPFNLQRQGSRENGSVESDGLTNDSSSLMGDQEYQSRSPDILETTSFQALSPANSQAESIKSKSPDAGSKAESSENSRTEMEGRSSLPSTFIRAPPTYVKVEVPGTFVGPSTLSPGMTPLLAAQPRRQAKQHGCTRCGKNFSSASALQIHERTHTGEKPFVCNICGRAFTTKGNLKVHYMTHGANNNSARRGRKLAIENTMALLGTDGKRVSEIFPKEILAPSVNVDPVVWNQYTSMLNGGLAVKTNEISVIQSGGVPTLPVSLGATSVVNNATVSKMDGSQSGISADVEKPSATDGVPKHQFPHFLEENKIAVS"}
{"Sequence": "CAGTGACG", "E-score": -0.128}
{"Sequence": "CTTACAAA", "E-score": 0.13}
{"Sequence": "AGTCGAAA", "E-score": -0.112}
{"Sequence": "CCGGAATA", "E-score": 0.0271}
{"Sequence": "AAGTGTCA", "E-score": -0.0186}
{"Sequence": "AGGAGAAG", "E-score": -0.0453}
{"Sequence": "ACTATAAT", "E-score": 0.379}
{"Sequence": "CTAACCGC", "E-score": -0.185}
{"Sequence": "AACTACTC", "E-score": 0.0763}
{"Sequence": "ACGCTCGC", "E-score": -0.139}
{"Sequence": "CAGCACGG", "E-score": -0.16}
{"Sequence": "CCCCCCCA", "E-score": -0.4}
{"Sequence": "AGTTTTAC", "E-score": 0.095}
{"Sequence": "GAGGCAGA", "E-score": -0.185}
{"Sequence": "GGAGGATA", "E-score": 0.139}
{"Sequence": "CGGTTCCA", "E-score": -0.256}
{"Sequence": "CATCGGGC", "E-score": -0.352}
{"data": "Study 4", "target": "Histone acetyltransferase KAT6A, both winged helices, GST fusion (KAT6A, Homo sapiens, UniProt Q92794, residues 1-181)", "method": "protein binding microarray", "form": "double-stranded DNA, one strand shown", "matrix": "in vitro", "concentration": "not given", "notes": "8-mer, flanks averaged, mean of 2 arrays, mostly near background", "reference": "not given", "direction": "higher = stronger binding", "Target sequence (chain)": "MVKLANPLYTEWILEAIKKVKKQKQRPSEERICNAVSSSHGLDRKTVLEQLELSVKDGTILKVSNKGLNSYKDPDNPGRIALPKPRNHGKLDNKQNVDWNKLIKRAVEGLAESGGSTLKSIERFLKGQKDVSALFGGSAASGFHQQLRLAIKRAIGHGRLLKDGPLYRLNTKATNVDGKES"}
{"Sequence": "GCATGAAC", "E-score": 0.0734}
{"Sequence": "CAACGATC", "E-score": 0.00511}
{"Sequence": "CTCACACC", "E-score": -0.0986}
{"Sequence": "CCATGAGC", "E-score": -0.0892}
{"Sequence": "GATTCGAA", "E-score": -0.0151}
{"Sequence": "GCGCACTA", "E-score": 0.249}
{"Sequence": "CATGGACA", "E-score": -0.216}
{"Sequence": "AAGGTACT", "E-score": -0.026}
{"Sequence": "ACGCTAAA", "E-score": 0.135}
{"Sequence": "CATTGGAA", "E-score": -0.0494}
{"Sequence": "AACGCGGA", "E-score": 0.274}
{"Sequence": "GTCTGCCA", "E-score": -0.0231}
{"Sequence": "CCCACGCA", "E-score": 0.0198}
{"Sequence": "GCCCTCAC", "E-score": -0.0487}
{"Sequence": "ATCCGGCA", "E-score": 0.0253}
{"Sequence": "GCAATTAC", "E-score": 0.135}
{"Sequence": "AACTGGTG", "E-score": -0.112}
{"Sequence": "AGCCCATC", "E-score": -0.224}
{"Sequence": "GTGCGTCA", "E-score": 0.127}
{"Sequence": "AATAGGCG", "E-score": 0.111}
{"Sequence": "AATCACGA", "E-score": -0.00873}
{"Sequence": "CTTTTAGA", "E-score": 0.0379}
{"Sequence": "GGACCTCC", "E-score": 0.0626}
{"Sequence": "ACCCGGTG", "E-score": 0.201}
{"Sequence": "CTGAACCA", "E-score": -0.0733}
{"note": "For quick reference, copied from above (study 3):"}
{"Sequence": "CCCCCCCA", "E-score": -0.4}
{"Sequence": "GGAGGATA", "E-score": 0.139}
{"Sequence": "GAGGCAGA", "E-score": -0.185}
{"Sequence": "CATCGGGC", "E-score": -0.352}
{"Sequence": "AAGTGTCA", "E-score": -0.0186}
{"Sequence": "ACGCTCGC", "E-score": -0.139}
{"Sequence": "ACTATAAT", "E-score": 0.379}
{"Sequence": "CTTACAAA", "E-score": 0.13}
{"Sequence": "CGGTTCCA", "E-score": -0.256}
{"Sequence": "AACTACTC", "E-score": 0.0763}
